Experimental data from different studies.
Protocols differ between the studies behind these lines.

With `CC[C@H](C)[C@H](NC(=O)CNC(=O)[C@H](CCCCN)NC(=O)[C@H](C)NC(=O)[C@H](CCC(=O)O)NC(=O)[C@H](Cc1ccccc1)NC(=O)[C@H](CO)NC(=O)[C@H](CC(C)C)NC(=O)[C@@H](NC(=O)[C@H](CC(=O)O)NC(=O)[C@H](C)NC(=O)[C@@H](NC(=O)[C@@H](N)C(C)C)[C@@H](C)O)C(C)C)C(=O)N[C@@H](C)C(=O)N[C@H](C(=O)N[C@@H](CC(N)=O)C(=O)N[C@@H](Cc1c[nH]cn1)C(=O)N[C@@H](CO)C(=O)N[C@@H](C)C(=O)N[C@H]1CSSC[C@@H]2NC(=O)[C@H](C(C)C)NC(=O)CNC(=O)[C@H](CC(N)=O)NC(=O)[C@H](CCC(N)=O)NC(=O)[C@H](C)NC(=O)[C@H](CO)NC(=O)CNC(=O)CNC(=O)[C@H](CCCCN)NC(=O)[C@H](CCCCN)NC(=O)[C@H](CCCNC(=N)N)NC(=O)[C@H](CC(C)C)NC(=O)[C@H](C)NC(=O)[C@H]([C@@H](C)CC)NC(=O)[C@H](CSSC[C@@H](C(=O)N[C@@H](CCCNC(=N)N)C(=O)N[C@@H](CC(N)=O)C(=O)O)NC(=O)[C@H](C(C)C)NC2=O)NC(=O)[C@H](Cc2c[nH]cn2)NC(=O)[C@H](CC(C)C)NC(=O)[C@H](C)NC1=O)C(C)C` the MIC was over 100 µM (Gram-negative and Gram-positive bacteria; highest tested 100 µM).
`CCCCCCCCCCCCCCCCSCC1OC(OC2C(N)CC(N)C(OC3OC(CN)C(O)CC3N)C2O)C(O)C(N)C1O` (stereo not shown) gave an MIC of 18.8 µg/mL (Enterococcus; vancomycin-resistant).
With `[O-][N+]1=C(c2ccc(Cl)cc2)C2=NCCCN2c2ccccc21` the MIC was 2 µg/mL (Bacteroides fragilis; microbial growth; ATCC25285).
With `CC[C@H](C)[C@H](NC(=O)[C@H](CC(C)C)NC(=O)[C@H](C)NC(=O)[C@H](CO)NC(=O)[C@H](CCCNC(=N)N)NC(=O)[C@@H](N)CO)C(=O)N[C@H](C(=O)N[C@@H](Cc1c[nH]cn1)C(=O)N[C@@H](CCC(N)=O)C(=O)N[C@@H](CCCNC(=N)N)C(=O)N[C@@H](CC(C)C)C(=O)N[C@@H](Cc1ccccc1)C(N)=O)C(C)C` the MIC was over 400 µg/mL (Candida parapsilosis; broth microdilution; RPMI MOPS-buffered).
For `CC[C@H](C)[C@@H]1NC(=O)CNC(=O)[C@H](CCCCN)NC(=O)[C@H](C)NC(=O)[C@H](CCC(=O)O)NC(=O)[C@H](Cc2ccccc2)NC(=O)[C@H](CO)NC(=O)[C@H](CC(C)C)NC(=O)[C@H](C(C)C)NC(=O)[C@H](CC(=O)O)NC(=O)[C@@H](NC(=O)[C@@H](NC(=O)[C@@H](N)C(C)C)[C@@H](C)O)CSSC[C@@H]2NC(=O)[C@H](CO)NC(=O)CNC(=O)CNC(=O)[C@H](CCCCN)NC(=O)[C@H](CCCCN)NC(=O)[C@H](CCCNC(=N)N)NC(=O)[C@H](CC(C)C)NC(=O)[C@H](C)NC(=O)[C@H]([C@@H](C)CC)NC(=O)[C@@H]3CSSC[C@@H](C(=O)N[C@@H](CCCNC(=N)N)C(=O)N[C@@H](CC(N)=O)C(=O)O)NC(=O)[C@H](C(C)C)NC(=O)[C@H](CSSC[C@H](NC(=O)[C@H](C)NC(=O)[C@H](CO)NC(=O)[C@H](Cc4c[nH]cn4)NC(=O)[C@H](CC(N)=O)NC(=O)[C@H](C(C)C)NC(=O)[C@H](C)NC1=O)C(=O)N[C@@H](C)C(=O)N[C@@H](CC(C)C)C(=O)N[C@@H](Cc1c[nH]cn1)C(=O)N3)NC(=O)[C@H](C(C)C)NC(=O)CNC(=O)[C@H](CC(N)=O)NC(=O)[C@H](CCC(N)=O)NC2=O`, the MIC was 10 µM (Candida parapsilosis; broth microdilution; ATCC 22019; 28 °C).
`CC[C@H](C)[C@H](NC(=O)[C@H](CCCCN)NC(=O)[C@H](CCCNC(=N)N)NC(=O)[C@H](Cc1c[nH]c2ccccc12)NC(=O)[C@@H](NC(=O)[C@H](CCCCN)NC(=O)[C@H](CCCNC(=N)N)NC(=O)[C@@H](NC(=O)[C@H](CCCNC(=N)N)NC(=O)[C@H](CCCCN)NC(=O)[C@H](CCCNC(=N)N)NC(=O)[C@H](CC(C)C)NC(=O)[C@H](CCCNC(=N)N)NC(=O)[C@H](CO)NC(=O)[C@H](Cc1ccccc1)NC(=O)[C@H](CCCNC(=N)N)NC(=O)CN)[C@@H](C)CC)C(C)C)C(=O)NCC(=O)N1CCC[C@H]1C(=O)N[C@H](C(=O)N[C@@H](C)C(=O)NCC(=O)N1CCC[C@H]1C(=O)N[C@H](C(=O)N[C@H](C(=O)NCC(=O)N[C@@H](Cc1c[nH]cn1)C(=O)N[C@@H](Cc1ccccc1)C(=O)NCC(=O)O)[C@@H](C)CC)[C@@H](C)CC)[C@@H](C)CC` gave an MIC of 8 to 16 µg/mL (gram-negative bacteria; agar dilution; clinical isolates; summary range).
With `CCCCc1ccc(-c2nc(C)c(C(C)=NNC(=N)N)s2)cc1` the MIC was 0.7 µg/mL (Staphylococcus aureus; VRS5 VRSA).
The MIC of `COc1ccc(C2=[N+]([O-])c3ccccc3N3CCN=C23)cc1` is reported as at most 0.06 µg/mL (Bacteroides fragilis; microbial growth; ATCC25285).
For `CC[C@H](C)[C@H](NC(=O)[C@H](Cc1c[nH]c2ccccc12)NC(=O)[C@H](CCCNC(=N)N)NC(=O)[C@H](CCC(N)=O)NC(=O)[C@@H](NC(=O)[C@H](Cc1c[nH]c2ccccc12)NC(=O)[C@H](CCCNC(=N)N)NC(=O)[C@H](CCCNC(=N)N)NC(=O)[C@H](CCSC)NC(=O)[C@H](C)NC(=O)[C@H](CCCCN)NC(=O)[C@@H]1CCCN1C(=O)[C@H](C)N)C(C)C)C(=O)N[C@@H](CCCNC(=N)N)C(=O)N[C@@H](CCCNC(=N)N)C(=O)N[C@@H](Cc1c[nH]c2ccccc12)C(=O)N[C@@H](CCCNC(=N)N)C(=O)N1CCC[C@H]1C(=O)N[C@@H](CCCCN)C(=O)N[C@H](C(=O)N[C@@H](Cc1ccccc1)C(=O)N[C@@H](CCC(N)=O)C(=O)N[C@H](C(=O)N[C@H](C(=O)NCC(=O)N[C@@H](CO)C(=O)N[C@@H](CO)C(=O)N[C@@H](C)C(N)=O)[C@@H](C)O)C(C)C)C(C)C`, the MIC was 5 µM (Aspergillus fumigatus; metabolic activity, resazurin; azole-resistant; 27 h, 37 °C).
The MIC of `N#Cc1ccc(-c2c[nH]c(CNC(=O)Nc3ncc(Sc4ccccn4)s3)n2)cc1` is reported as over 128 µM (Bacteroides fragilis; broth microdilution; ATCC 25285; together with: verapamil 50 µg/mL).
`OB(O)c1cnn(-c2cccc(Cl)c2)c1` has an MIC of 8 µg/mL (Klebsiella aerogenes; bacterial growth; AmpC-overproducing clinical isolate; cefotaxime alone).
`c1ccc(CCNC2CCCc3c2[nH]c2ccc(C4CCCCC4)cc32)cc1` (stereo not shown) has an MIC of 4 µg/mL (Staphylococcus aureus; broth microdilution; SA113, cation-adjusted MHB).
For `CC1C(=NOCc2cc(-c3ccc(Cl)cc3)no2)C(C)C(c2ccc(Cl)cc2)OC1c1ccc(Cl)cc1` (stereo not shown), the MIC was 25 µg/mL (Aspergillus niger; microbial growth).
For `COC1C=COC2(C)Oc3c(C)c(O)c4c(c3C2=O)C2=NC3(CCN(CC(C)C)CC3)NC2=C(NC(=O)C(C)=CC=CC(C)C(O)C(C)C(O)C(C)C(OC(=O)Nc2cnccn2)C1C)C4=O` (stereo not shown), the MIC was 0.024 µM (Mycobacteroides abscessus; ATCC 19977 arr knockout).
For `COc1ccc(C2=[N+]([O-])c3ccccc3N3CCCN=C23)cc1`, the MIC was 1 µg/mL (Finegoldia magna).
`CC[C@H](C)[C@@H]1NC(=O)[C@H](CC(C)C)NC(=O)[C@@H](NC(=O)[C@H](CO)NC(=O)[C@H](CCCNC(=N)N)NC(=O)[C@@H](N)CO)CCSSCC[C@@H](C(=O)N[C@@H](CCC(N)=O)C(=O)N[C@@H](CCCNC(=N)N)C(=O)N[C@@H](CC(C)C)C(=O)N[C@@H](Cc2ccccc2)C(N)=O)NC(=O)[C@H](C(C)C)NC1=O` gave an MIC of 10 µg/mL (Candida parapsilosis; broth microdilution; ATCC 22019).
With `S=C(NCc1ccccn1)NCc1ccccn1` the MIC was 4.04 µg/mL (Agrobacterium tumefaciens).
For `C[N+]1=C2C(c3ccc(Cl)cc3)=[N+]([O-])c3ccccc3N2CCC1`, the MIC was 4 µg/mL (Porphyromonas asaccharolytica).
`O.O=[N+]([O-])[O-].O=c1cc[nH]c(=S)[nH]1.[Ag+].c1ccc(P(c2ccccc2)c2ccccc2)cc1.c1ccc(P(c2ccccc2)c2ccccc2)cc1` gave an MIC of 7 µg/mL (Shigella flexneri; agar dilution; MTCC 1457, Mueller Hinton agar; 24 h, 37 °C).
The MIC of `CC[C@H](C)[C@@H]1NC(=O)CNC(=O)[C@H](CCCCN)NC(=O)[C@H](C)NC(=O)[C@H](CCC(=O)O)NC(=O)[C@H](Cc2ccccc2)NC(=O)[C@H](CO)NC(=O)[C@H](CC(C)C)NC(=O)[C@H](C(C)C)NC(=O)[C@H](CC(=O)O)NC(=O)[C@@H](NC(=O)[C@@H](NC(=O)[C@@H](N)C(C)C)[C@@H](C)O)CSSC[C@@H]2NC(=O)[C@H](CO)NC(=O)CNC(=O)CNC(=O)[C@H](CCCCN)NC(=O)[C@H](CCCCN)NC(=O)[C@H](CCCNC(=N)N)NC(=O)[C@H](CC(C)C)NC(=O)[C@H](C)NC(=O)[C@H]([C@@H](C)CC)NC(=O)[C@H](C)NC(=O)[C@H](Cc3c[nH]cn3)NC(=O)[C@H](CC(C)C)NC(=O)[C@H](C)NC(=O)[C@H](CSSC[C@@H](C(=O)N[C@H](C(=O)N[C@@H](C)C(=O)N[C@@H](CCCNC(=N)N)C(=O)N[C@@H](CC(N)=O)C(=O)O)C(C)C)NC(=O)[C@H](C(C)C)NC(=O)CNC(=O)[C@H](CC(N)=O)NC(=O)[C@H](CCC(N)=O)NC2=O)NC(=O)[C@H](C)NC(=O)[C@H](CO)NC(=O)[C@H](Cc2c[nH]cn2)NC(=O)[C@H](CC(N)=O)NC(=O)[C@H](C(C)C)NC(=O)[C@H](C)NC1=O` is reported as over 100 µM (Gram-negative and Gram-positive bacteria; highest tested 100 µM).
For `[O-][N+]1=C(c2ccc(Cl)cc2)C2=NCCCCN2c2ccccc21`, the MIC was 0.25 µg/mL (Porphyromonas gingivalis; microbial growth; ATCC33277).
The MIC of `CC[C@H](C)[C@H](NC(=O)[C@@H](NC(=O)CN)C(C)C)C(=O)N[C@@H](Cc1ccccc1)C(=O)N[C@@H](CC(N)=O)C(=O)N[C@@H](C)C(=O)N[C@@H](CC(C)C)C(=O)N[C@@H](CCCCN)C(=O)NCC(=O)N[C@H](C(=O)N[C@@H](C)C(=O)N[C@@H](CCCCN)C(=O)N[C@H](C(=O)N[C@H](C(=O)N[C@@H](C)C(=O)N[C@@H](C)C(=O)N[C@@H](CCC(N)=O)C(=O)N[C@@H](CC(C)C)C(=O)N[C@@H](CC(C)C)C(=O)N[C@@H](CCCCN)C(=O)N[C@@H](CCCCN)C(=O)N[C@@H](C)C(=O)N[C@@H](CCCNC(=N)N)C(=O)N[C@H]1CSSC[C@@H](C(=O)O)NC(=O)[C@H](CO)NC(=O)[C@H](CCCCN)NC(=O)[C@H](CC(=O)O)NC(=O)[C@H](CC(C)C)NC(=O)[C@H](CCCCN)NC1=O)C(C)C)[C@@H](C)O)C(C)C` is reported as 2 µM (Staphylococcus aureus; methicillin-resistant NCTC 12493; Mueller-Hinton broth).
With `COc1ccc(C2=[N+]([O-])c3ccccc3N3CC(C)(C)CN=C23)cc1` the MIC was 4 µg/mL (Finegoldia magna).
For `CC(C)Oc1ccc(B(O)O)c(F)n1`, the MIC was 8 µg/mL (Klebsiella aerogenes; bacterial growth; AmpC-overproducing clinical isolate; cefotaxime alone).
`C[N+]1=C2C(c3ccc([N+](=O)[O-])cc3)=[N+]([O-])c3ccccc3N2CCC1` has an MIC of 1 µg/mL (Finegoldia magna).
For `CC(C)C[C@H](NC(=O)[C@H](CCCNC(=N)N)NC(=O)[C@H](CCC(N)=O)NC(=O)[C@H](Cc1c[nH]cn1)NC(=O)[C@@H](NC(=O)[C@H](CCCNC(=N)N)NC(=O)[C@H](CC(C)C)NC(=O)[C@H](CCC(=O)O)NC(=O)[C@H](CO)NC(=O)[C@H](CCCNC(=N)N)NC(=O)[C@@H](N)CO)C(C)C)C(=O)N[C@@H](Cc1ccccc1)C(N)=O`, the MIC was over 400 µg/mL (Candida parapsilosis; broth microdilution; RPMI MOPS-buffered).
`O=[N+]([O-])c1ccc(C2=[N+]([O-])c3ccccc3N3CCCN=C23)cc1` has an MIC of 1 µg/mL (Finegoldia magna).
For `CC1C(=NNC(=O)c2ccncc2)C(C)C(c2ccc(Br)cc2)OC1c1ccc(Br)cc1` (stereo not shown), the MIC was 50 µg/mL (Aspergillus niger; microbial growth).
